{"data": "Measured values pooled from the literature", "note": "Numbered parts are unrelated; each lists some results of a single study. Positions count from the first letter of the parent shown."}
{"data": "Sample 1", "target": "CCNA1, cyclin fold, Cln2 fusion (human)", "method": "yeast growth competition, sequencing", "medium": "yeast", "setting": "weak parent motif", "baseline": "not given", "direction": "higher = stronger binding", "starting sequence": "ORC1 docking peptide (human); PRARKRLELGNLG; partner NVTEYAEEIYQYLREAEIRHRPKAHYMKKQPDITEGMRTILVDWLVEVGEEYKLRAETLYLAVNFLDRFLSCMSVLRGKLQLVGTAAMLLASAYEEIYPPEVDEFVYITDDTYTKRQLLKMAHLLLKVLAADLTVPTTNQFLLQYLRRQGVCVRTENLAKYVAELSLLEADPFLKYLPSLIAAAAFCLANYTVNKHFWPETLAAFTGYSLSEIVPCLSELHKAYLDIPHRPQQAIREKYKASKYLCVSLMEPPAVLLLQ"}
{"Variant": "E8P", "normalised enrichment score": 0.0939}
{"Variant": "K5D", "normalised enrichment score": 0.369}
{"Variant": "R4A", "normalised enrichment score": 0.199}
{"Variant": "R2T", "normalised enrichment score": 0.568}
{"Variant": "L9M", "normalised enrichment score": 0.609}
{"Variant": "G10L", "normalised enrichment score": 0.679}
{"data": "Sample 2", "target": "Histone acetyltransferase KAT6A, both winged helices, GST fusion (KAT6A, Homo sapiens, UniProt Q92794, residues 1-181)", "method": "protein binding microarray", "form": "double-stranded DNA, one strand shown", "medium": "in vitro", "concentration": "not given", "setting": "8-mer, flanks averaged, mean of 2 arrays, mostly near background", "baseline": "not given", "direction": "higher = stronger binding", "Target sequence (chain)": "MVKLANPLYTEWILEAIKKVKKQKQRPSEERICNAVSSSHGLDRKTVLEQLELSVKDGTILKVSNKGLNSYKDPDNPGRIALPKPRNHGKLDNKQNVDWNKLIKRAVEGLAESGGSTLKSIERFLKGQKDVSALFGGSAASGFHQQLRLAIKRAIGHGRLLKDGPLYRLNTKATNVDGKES"}
{"Oligonucleotide": "CTAAGGGA", "E-score": -0.114}
{"Oligonucleotide": "CGAGGAGC", "E-score": 0.00487}
{"Oligonucleotide": "GTCTTGCA", "E-score": 0.00582}
{"Oligonucleotide": "CATATTAC", "E-score": 0.0528}
{"Oligonucleotide": "GGTGATAA", "E-score": -0.00593}
{"Oligonucleotide": "CCCCCAAG", "E-score": -0.298}
{"Oligonucleotide": "CGATGAAA", "E-score": -0.0349}
{"Oligonucleotide": "TATATGCA", "E-score": 0.001}
{"data": "Sample 3", "target": "Sal-like protein 4, full length isoform A (SALL4, Homo sapiens, UniProt Q9UJQ4, residues 1-1053)", "method": "universal PBM", "form": "double-stranded DNA, one strand shown", "medium": "in vitro", "concentration": "600 nM", "setting": "8-mer, flanks averaged, mean of replicates", "direction": "higher = stronger binding", "UniProt Q9UJQ4, sequence (whole entry, looked up)": "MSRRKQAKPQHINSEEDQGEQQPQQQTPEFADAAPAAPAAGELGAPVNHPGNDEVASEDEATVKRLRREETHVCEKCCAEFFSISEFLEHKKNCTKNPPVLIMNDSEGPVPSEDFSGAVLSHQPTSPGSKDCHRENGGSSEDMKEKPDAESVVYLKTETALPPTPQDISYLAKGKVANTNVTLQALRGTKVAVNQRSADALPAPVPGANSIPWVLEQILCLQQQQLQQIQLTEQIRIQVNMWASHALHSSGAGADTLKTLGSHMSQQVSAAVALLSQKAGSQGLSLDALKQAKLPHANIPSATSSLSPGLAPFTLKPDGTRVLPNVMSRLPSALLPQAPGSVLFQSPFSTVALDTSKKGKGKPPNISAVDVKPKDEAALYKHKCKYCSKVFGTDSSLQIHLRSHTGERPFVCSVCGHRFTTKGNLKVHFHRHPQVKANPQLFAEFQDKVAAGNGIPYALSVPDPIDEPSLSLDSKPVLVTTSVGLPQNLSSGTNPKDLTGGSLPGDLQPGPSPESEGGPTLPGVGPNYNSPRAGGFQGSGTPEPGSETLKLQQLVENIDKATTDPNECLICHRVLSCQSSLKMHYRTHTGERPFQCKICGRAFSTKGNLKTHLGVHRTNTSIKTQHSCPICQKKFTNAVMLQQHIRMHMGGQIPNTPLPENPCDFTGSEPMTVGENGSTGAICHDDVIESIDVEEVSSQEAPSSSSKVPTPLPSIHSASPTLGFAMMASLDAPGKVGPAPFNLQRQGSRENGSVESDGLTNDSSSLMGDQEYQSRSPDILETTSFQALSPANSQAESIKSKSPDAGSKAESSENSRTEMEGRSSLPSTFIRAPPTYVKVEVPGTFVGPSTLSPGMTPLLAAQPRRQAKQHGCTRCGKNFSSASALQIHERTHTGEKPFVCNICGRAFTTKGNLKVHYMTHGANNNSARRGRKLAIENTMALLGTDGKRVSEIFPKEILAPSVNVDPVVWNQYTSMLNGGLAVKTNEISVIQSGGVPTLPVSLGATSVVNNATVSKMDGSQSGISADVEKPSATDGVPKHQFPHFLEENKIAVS"}
{"Oligonucleotide": "AGCATATA", "E-score": 0.286}
{"Oligonucleotide": "CGGTATGA", "E-score": 0.125}
{"Oligonucleotide": "GAAGCACC", "E-score": -0.218}
{"Oligonucleotide": "GCAGGGGC", "E-score": -0.287}
{"Oligonucleotide": "ACAGCCCA", "E-score": -0.17}
{"Oligonucleotide": "CGTCGTGC", "E-score": -0.101}
{"Oligonucleotide": "GAGCATCA", "E-score": -0.00789}
{"data": "Mixed results"}
{"Molecule": "PhoQ, residues 284 288 289 292 302 303 TLASMF", "target": "PhoP, residues 12 14 15 18 19 AGCRL (Escherichia coli, UniProt P23836)", "assay": "Sort-seq, item: YFP reporter", "test system": "E. coli", "setting": "PhoQ-PhoP variant library, together with: 10 µM Mg2+", "how to read": "baseline: high Mg2+ state, higher = stronger signaling", "quantity": "fold induction", "result": 1.66}
{"note": "Some of these lines once more (sample 3):"}
{"Oligonucleotide": "GCAGGGGC", "E-score": -0.287}
{"Oligonucleotide": "ACAGCCCA", "E-score": -0.17}
{"Oligonucleotide": "CGTCGTGC", "E-score": -0.101}
